Measurements gathered from unrelated publications.
Each line is one published result; not all experiments were run side by side. ± marks the error that the study gave.

Compound | assay | test system | conditions | Cmax
Cc1c(-c2ccc(N3CCc4cccc(C(=O)Nc5nc6ccccc6s5)c4C3)nc2C(=O)O)cnn1CC12CC3CC(CC(C3)C1)C2 |  | anesthetized male Sprague-Dawley rats, plasma | intravenous infusion, 30 mg/kg, 30 min infusion | 194000 ng/mL
COc1ccc([C@@H]2CC(=O)c3c(O)cc(O[C@@H]4O[C@H](CO)[C@@H](O)[C@H](O)[C@H]4O[C@@H]4O[C@@H](C)[C@H](O)[C@@H](O)[C@H]4O)cc3O2)cc1O |  | Sprague-Dawley rat, male, lean, plasma | oral, 100 mg/kg | 5.09 ± 4.21 ng/mL
CC[C@H](C)[C@H](NC(=O)[C@H](Cc1ccc(O)cc1)NC(=O)[C@@H](NC(=O)[C@H](CCCNC(=N)N)NC(=O)[C@@H](N)CC(=O)O)C(C)C)C(=O)N[C@@H](Cc1c[nH]cn1)C(=O)N1CCC[C@H]1C(=O)O | LC-MS/MS | Sprague-Dawley rats, plasma | subcutaneous, 10 mg/kg/day, day 27 | 257 ng/mL
O=C(O)/C=C\c1cc2ccoc2cc1O[C@@H]1O[C@H](CO)[C@@H](O)[C@H](O)[C@H]1O |  | rat, plasma | oral, 217 mg/kg Pc extract, dosed as Pc extract | 488 ± 224 ng/mL
C=CC[C@@H]1/C=C(\C)C[C@H](C)C[C@H](OC)[C@H]2O[C@@](O)(C(=O)C(=O)N3CCCC[C@H]3C(=O)O[C@H](/C(C)=C/[C@@H]3CC[C@@H](O)[C@H](OC)C3)[C@H](C)[C@@H](O)CC1=O)[C@H](C)C[C@@H]2OC | LC-MS/MS | rat, whole blood | intraperitoneal, 0.5 mg/kg single dose | 136 ng/mL
O=C(Nc1cc(-c2ccnc3[nH]ccc23)c(Cl)cn1)[C@H]1CCC[C@@H](NC(=O)C(F)(F)F)C1 |  | rat, plasma | oral, dose not given | 2.61 µM
CCCC[C@H](OC(C)=O)c1ccccc1C(=O)O |  | Sprague-Dawley rats, both sexes, whole blood | intravenous, 1.25 mg/kg single dose | 3780 ± 931 ng/mL
OC1(C(F)(F)F)CCN(c2nc(Nc3ccnc(C(F)(F)F)c3)nc(-c3cccc(C(F)(F)F)n3)n2)C1 (stereo not drawn) |  | Sprague-Dawley rat, both sexes, plasma | oral gavage, 5 mg/kg, day 14 | 859 ± 138 ng/mL
C/C(N)=N/C(=N\S(=O)(=O)c1ccc(C(F)(F)F)cc1)N1C[C@H](c2ccccc2)C(c2ccc(Cl)cc2)=N1 |  | Sprague-Dawley rat, male, plasma | oral, 30 mg/kg | 3120 ng/mL
CC1(C)C(NC(=O)C(=NOC2(C(=O)O)CC2)c2csc(N)n2)C(=O)N1OS(=O)(=O)O (stereo not drawn) |  | Sprague-Dawley rat, plasma | intravenous, 10 mg/kg | 51500 ± 19700 ng/mL
CN1CCC[C@@H]1C(=O)N[C@@H](Cc1ccc(-c2ccccc2)cc1)B(O)O |  | Sprague-Dawley rat, male, plasma | intravenous, 1 mg/kg | 2.67 µM
C=C(NC(=O)c1csc(-c2nc3c(cc2O)-c2nc(cs2)C(=O)NC(C(C)O)C(=O)NC(=C(C)OC)c2nc(cs2)C(=O)NC2c4nc(cs4)C(=O)NC(COC(=O)c4c5c6c(cccc6n4O)COC(=O)C(OC4CC(C)(O)C(N(C)C)C(C)O4)C2OC5)c2nc-3cs2)n1)C(N)=O (stereo not drawn) |  | Sprague-Dawley rat, both sexes, plasma | intravenous infusion, 6 mg/kg single dose | 4390 ng/mL
